Measured values from different studies.
Phospholipase D2: Phospholipase D2 (Homo sapiens, UniProt O14939)
Oprk1: Kappa-type opioid receptor (Oprk1, Rattus norvegicus, UniProt P34975)
Sigmar1: Sigma non-opioid intracellular receptor 1 (Sigmar1, Rattus norvegicus, UniProt Q9R0C9)

CN[C@@H](C)C(=O)N[C@H]1CN(C(=O)Cc2ccccc2)CC[C@H]2CC[C@@H](C(=O)NCc3ccc(Br)cc3)N2C1=O — selectivity ratio (Baculoviral IAP repeat-containing protein 2, BIR3 domain (BIRC2, Homo sapiens, UniProt Q13490); fluorescence polarization; reference: Ki XIAP over Ki cIAP1): 962
CCOc1cncc(-c2ccc(NC(=O)C3(c4ccnc(NS(=O)(=O)C5CC5)n4)CCOCC3)nc2)n1 — selectivity ratio (CTP synthase 1 (Homo sapiens, UniProt P17812); enzyme activity; human; reference: CTPS2 over target IC50): 1360
O=C(NCCN1CCC2(CC1)C(=O)NCN2Cc1cccnc1)c1cc2ccccc2[nH]1 — selectivity ratio (Phospholipase D2; reference: PLD1 IC50 over PLD2 IC50?): ~69 fold
N[C@@H](CCC(=O)N[C@@H](CS[Se]Cc1ccc(C(=O)Nc2cc(C(F)(F)F)c(Br)c(C(F)(F)F)c2)cc1)C(=O)NCC(=O)O)C(=O)O — selectivity ratio (Low molecular weight phosphotyrosine protein phosphatase (ACP1, Homo sapiens, UniProt P24666); enzyme activity, inhibitor; reference: IC50 over mPTPA (M. tuberculosis)): > 50 fold
N=C(N)NCCC[C@@H]1NC(=O)[C@H](CCCNC(=N)N)NC(=O)[C@H](NC(=O)[C@H](Cc2ccccc2)NC(=O)CNC(=O)CNC(=O)[C@H](Cc2ccc(O)cc2)NCc2ccccc2)CC(=O)NCC[C@@H](C(=O)N[C@@H](CCCNC(=N)N)C(=O)N2CCC[C@H]2C(=O)N[C@@H](CCCCN)C(N)=O)NC1=O — selectivity ratio (Oprk1; binding; reference: Ki(MOR) over Ki(KOR)): 8
Cc1cc(N2CC[C@@](C#N)(C3(C)CC3)C2=O)cc(C(=O)NCc2cc(F)cc(-c3cnn(C)c3)c2)n1 — selectivity ratio (Proline--tRNA ligase (Plasmodium falciparum, UniProt Q8I5R7); binding, microscale thermophoresis; reference: human over P. falciparum Kd): 0.4
COc1ccc(C[C@@H]2NC(=O)CC3(CCCCC3)SSC[C@@H](C(=O)N3CCC[C@H]3C(=O)N[C@@H](CCCNC(=N)N)C(=O)NCC(N)=O)NC(=O)[C@H](CC(N)=O)NC(=O)[C@H](CCC(N)=O)NC(=O)[C@H](Cc3ccccc3)NC2=O)cc1 — selectivity ratio (oxytocin receptor (Mesocricetus auratus, UniProt A0A1U7Q6Y0); competition binding; hamster brain sections; reference: OTR over V1aR Ki): 31.1
CC(=O)C1=C(C)NC(SCCCSc2nnc(Cc3ccccc3Nc3c(Cl)cccc3Cl)n2-c2ccc(Cl)c(Cl)c2)=NC1c1ccc(C)cc1 (centres unmarked) — selectivity ratio (Amine oxidase [flavin-containing] B (MAOB, Homo sapiens, UniProt P27338); fluorometric; reference: IC50 hMAO-A over IC50 hMAO-B): 0.1
CC(C)[C@H]1NC(=O)[C@H](CO)NC(=O)c2cc3cc(c2)C(=O)NC[C@H](NC(=O)[C@H](Cc2c[nH]cn2)NC(=O)[C@H](Cc2ccc(C(F)(F)P(=O)(O)O)cc2)NC(=O)[C@@H]2CCCN2C1=O)C(=O)N[C@@H](Cc1ccccc1)C(=O)N[C@@H](Cc1ccc2ccccc2c1)C(=O)N[C@@H](CCCNC(=N)N)C(=O)N[C@@H](CCCNC(=N)N)C(=O)N[C@@H](CCCNC(=N)N)C(=O)N[C@@H](CCCNC(=N)N)C(=O)N[C@H](C(=O)N[C@@H](CCCCN)C(N)=O)CNC3=O — selectivity ratio (Tyrosine-protein phosphatase non-receptor type 1 (PTPN1, Homo sapiens, UniProt P18031); enzyme activity; reference: PTPN1 over TCPTP): 17 fold
CCCCCCCCCCCCCCN(O)C(=O)CCCCC[C@@H]1NC(=O)[C@H]2CCCN2C(=O)[C@H](Cc2ccccc2)NC(=O)[C@H](Cc2ccccc2)NC1=O — selectivity ratio (Histone deacetylase 11 (HDAC11, Homo sapiens, UniProt Q96DB2); enzyme activity, fluorogenic; reference: Ki HDAC1 over Ki HDAC11): < 10
CCCc1ccc2c(c1)sc(=O)n2CCCCCCN1CCCCCC1 — selectivity ratio (Sigmar1; reference: Ki sigma-2 over Ki sigma-1): 0.4
O=C(NCCN1CCC2(CC1)C(=O)NCN2Cc1cccnc1)c1cc2cc(F)ccc2[nH]1 — selectivity ratio (Phospholipase D2; reference: PLD1 IC50 over Phospholipase D2 IC50): 26 fold
CCCC(=O)c1ccc2c(c1)sc(=O)n2CCCCCCN1CCCCCC1 — selectivity ratio (Sigmar1; reference: Ki sigma-2 over Ki sigma-1): 0.2
CC(=O)N(C)[C@@H](Cc1ccccc1)C(=O)N[C@@H](Cc1ccccc1)C(=O)N[C@@H](CC1CCCCC1)C(=O)N[C@@H](CCCNC(=N)N)C(=O)N[C@@H](CC(C)C)C(=O)N[C@@H](CCCNC(=N)N)C(=O)N[C@@H](CCCNC(=N)N)C(=O)N[C@H](C)C(=O)N[C@@H](CCCNC(=N)N)C(=O)N1CCC[C@H]1C(=O)N[C@@H](CCCCN)C(N)=O — selectivity ratio (Oprk1; binding, [3H]diprenorphine competition; CHO cells; reference: Ki mu over Ki kappa, higher = more kappa-selective): 755
CCCc1ccc2c(c1)sc(=O)n2CCCN1CCCCCC1 — selectivity ratio (Sigmar1; reference: Ki sigma-2 over Ki sigma-1): 13
CC(=O)N[C@@H](Cc1ccccc1)C(=O)N[C@@H](Cc1ccccc1)C(=O)N[C@@H](Cc1c[nH]c2ccccc12)C(=O)N[C@@H](CCCNC(=N)N)C(=O)N[C@@H](CC(C)C)C(=O)N[C@@H](CCCNC(=N)N)C(=O)N[C@@H](CCCNC(=N)N)C(=O)N[C@H](C)C(=O)N[C@@H](CCCNC(=N)N)C(=O)N1CCC[C@H]1C(=O)N[C@@H](CCCCN)C(N)=O — selectivity ratio (Oprk1; binding, [3H]diprenorphine competition; CHO cells; reference: Ki mu over Ki kappa, higher = more kappa-selective): 73
CCCCc1ccc2c(c1)sc(=O)n2CCCN1CCCCCC1 — selectivity ratio (Sigmar1; reference: Ki sigma-2 over Ki sigma-1): 7
COC(=O)N(C)[C@@H](Cc1ccccc1)C(=O)N[C@@H](Cc1ccccc1)C(=O)N[C@@H](Cc1ccccc1)C(=O)N[C@@H](CCCNC(=N)N)C(=O)N[C@@H](CC(C)C)C(=O)N[C@@H](CCCNC(=N)N)C(=O)N[C@@H](CCCNC(=N)N)C(=O)N[C@H](C)C(=O)N[C@@H](CCCNC(=N)N)C(=O)N1CCC[C@H]1C(=O)N[C@@H](CCCCN)C(N)=O — selectivity ratio (Oprk1; binding, [3H]diprenorphine competition; CHO cells; reference: Ki mu over Ki kappa, higher = more kappa-selective): 355
CCC(=O)c1ccc2c(c1)sc(=O)n2CCCN1CCCCCC1 — selectivity ratio (Sigmar1; reference: Ki sigma-2 over Ki sigma-1): 83
CC(=O)N(C)[C@@H](Cc1ccccc1)C(=O)N[C@@H](Cc1ccccc1)C(=O)N[C@@H](Cc1c[nH]c2ccccc12)C(=O)N[C@@H](CCCNC(=N)N)C(=O)N[C@@H](CC(C)C)C(=O)N[C@@H](CCCNC(=N)N)C(=O)N[C@@H](CCCNC(=N)N)C(=O)N[C@H](C)C(=O)N[C@@H](CCCNC(=N)N)C(=O)N1CCC[C@H]1C(=O)N[C@@H](CCCCN)C(N)=O — selectivity ratio (Oprk1; binding, [3H]diprenorphine competition; CHO cells; reference: Ki mu over Ki kappa, higher = more kappa-selective): 230

Some of these lines once more:
CCCc1ccc2c(c1)sc(=O)n2CCCN1CCCCCC1 — selectivity ratio (Sigmar1; reference: Ki sigma-2 over Ki sigma-1): 13
CC(=O)N[C@@H](Cc1ccccc1)C(=O)N[C@@H](Cc1ccccc1)C(=O)N[C@@H](Cc1c[nH]c2ccccc12)C(=O)N[C@@H](CCCNC(=N)N)C(=O)N[C@@H](CC(C)C)C(=O)N[C@@H](CCCNC(=N)N)C(=O)N[C@@H](CCCNC(=N)N)C(=O)N[C@H](C)C(=O)N[C@@H](CCCNC(=N)N)C(=O)N1CCC[C@H]1C(=O)N[C@@H](CCCCN)C(N)=O — selectivity ratio (Oprk1; binding, [3H]diprenorphine competition; CHO cells; reference: Ki mu over Ki kappa, higher = more kappa-selective): 73
CCCCc1ccc2c(c1)sc(=O)n2CCCN1CCCCCC1 — selectivity ratio (Sigmar1; reference: Ki sigma-2 over Ki sigma-1): 7
